Literature values as cited in several papers.
Numbered parts are unrelated; values within a part may stem from several laboratories.

Study 1
Organism: Toxoplasma gondii
Read-out: parasite growth
Tested at: concentration not given
Notes: published screen
| SMILES | activity class |
| --- | --- |
| CCC1=C(C)CN(C(=O)NCCc2ccc(S(=O)(=O)NC(=O)N[C@H]3CC[C@H](C)CC3)cc2)C1=O | inactive |
| CN(CCCN1c2ccccc2CCc2ccccc21)CC(=O)c1ccc(Cl)cc1 | inactive |
| COCCCC/C(=N\OCCN)c1ccc(C(F)(F)F)cc1 | inactive |

Mixed results
| SMILES | target or system | read-out | pH | measurement | result |
| --- | --- | --- | --- | --- | --- |
| C[C@@H](O)C(=O)CCCCC[C@@H]1NC(=O)[C@H]2CCCN2C(=O)[C@H](Cc2ccccc2)NC(=O)C(C)(C)NC1=O | K562 |  |  | IC50 | 18 nM |
| CCCCC(CC)COC(=O)c1ccc(O)cc1 (centres unmarked) |  |  | pH 7.4 | logD | 4.02 |
| Cc1cc(C)c(-n2ccn3nc(-c4cccnc4)cc23)cc1NC(=O)c1cc(C#N)cc(S(F)(F)(F)(F)F)c1 | TEK | biochemical activity |  | IC50 | 0.45 nM |
| CC(=O)O[C@H](C)C(=O)CCCCC[C@@H]1NC(=O)[C@H]2CCCN2C(=O)[C@H](Cc2ccccc2)NC(=O)C(C)(C)NC1=O | K562 |  |  | IC50 | 61 nM |
| O=C(OCc1ccccc1)c1ccc(O)cc1 |  |  | pH 7.4 | logD | 3.52 |

For quick reference, copied from above (study 1):
| SMILES | activity class |
| --- | --- |
| CCC1=C(C)CN(C(=O)NCCc2ccc(S(=O)(=O)NC(=O)N[C@H]3CC[C@H](C)CC3)cc2)C1=O | inactive |
